Measurements from different studies.
Every numbered part comes from another study and shows a few of its results, in no order. Several values in a cell are separate wells, animals, samples, runs or records.
Sequence of UniProt O43318 (whole entry, looked up): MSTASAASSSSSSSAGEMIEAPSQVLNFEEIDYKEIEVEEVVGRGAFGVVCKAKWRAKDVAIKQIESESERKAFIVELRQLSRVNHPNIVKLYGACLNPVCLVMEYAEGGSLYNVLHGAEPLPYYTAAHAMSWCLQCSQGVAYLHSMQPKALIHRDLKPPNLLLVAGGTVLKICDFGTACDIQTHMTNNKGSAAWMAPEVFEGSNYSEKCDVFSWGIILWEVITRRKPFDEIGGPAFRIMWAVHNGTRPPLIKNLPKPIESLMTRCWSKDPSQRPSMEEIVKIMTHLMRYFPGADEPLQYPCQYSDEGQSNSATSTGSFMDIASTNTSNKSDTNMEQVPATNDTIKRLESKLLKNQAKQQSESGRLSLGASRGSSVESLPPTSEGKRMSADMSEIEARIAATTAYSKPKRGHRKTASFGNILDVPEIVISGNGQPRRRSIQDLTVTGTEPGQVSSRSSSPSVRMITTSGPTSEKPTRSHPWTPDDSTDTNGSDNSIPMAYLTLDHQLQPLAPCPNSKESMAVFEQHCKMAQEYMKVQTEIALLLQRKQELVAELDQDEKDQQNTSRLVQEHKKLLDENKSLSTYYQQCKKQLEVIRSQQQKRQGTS
Sequence of UniProt Q96GD4 (whole entry, looked up): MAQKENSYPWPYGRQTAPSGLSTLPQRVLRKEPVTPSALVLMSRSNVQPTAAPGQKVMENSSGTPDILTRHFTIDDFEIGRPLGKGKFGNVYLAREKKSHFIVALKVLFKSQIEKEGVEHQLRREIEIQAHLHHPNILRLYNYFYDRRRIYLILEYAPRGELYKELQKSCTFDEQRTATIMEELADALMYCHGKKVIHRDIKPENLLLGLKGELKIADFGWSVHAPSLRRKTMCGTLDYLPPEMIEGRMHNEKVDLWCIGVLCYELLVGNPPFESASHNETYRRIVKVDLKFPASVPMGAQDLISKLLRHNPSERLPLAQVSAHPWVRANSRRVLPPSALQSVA
Sequence of UniProt Q00534 (whole entry, looked up): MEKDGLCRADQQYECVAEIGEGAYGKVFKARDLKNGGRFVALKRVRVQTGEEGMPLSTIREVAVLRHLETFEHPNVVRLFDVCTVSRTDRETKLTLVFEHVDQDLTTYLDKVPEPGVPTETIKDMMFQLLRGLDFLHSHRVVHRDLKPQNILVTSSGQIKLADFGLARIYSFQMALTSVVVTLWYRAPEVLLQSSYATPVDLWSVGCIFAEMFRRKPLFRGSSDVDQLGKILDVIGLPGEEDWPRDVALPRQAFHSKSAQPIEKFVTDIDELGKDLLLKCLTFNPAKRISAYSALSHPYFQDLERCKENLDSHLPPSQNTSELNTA
Sequence of UniProt P15056 (whole entry, looked up): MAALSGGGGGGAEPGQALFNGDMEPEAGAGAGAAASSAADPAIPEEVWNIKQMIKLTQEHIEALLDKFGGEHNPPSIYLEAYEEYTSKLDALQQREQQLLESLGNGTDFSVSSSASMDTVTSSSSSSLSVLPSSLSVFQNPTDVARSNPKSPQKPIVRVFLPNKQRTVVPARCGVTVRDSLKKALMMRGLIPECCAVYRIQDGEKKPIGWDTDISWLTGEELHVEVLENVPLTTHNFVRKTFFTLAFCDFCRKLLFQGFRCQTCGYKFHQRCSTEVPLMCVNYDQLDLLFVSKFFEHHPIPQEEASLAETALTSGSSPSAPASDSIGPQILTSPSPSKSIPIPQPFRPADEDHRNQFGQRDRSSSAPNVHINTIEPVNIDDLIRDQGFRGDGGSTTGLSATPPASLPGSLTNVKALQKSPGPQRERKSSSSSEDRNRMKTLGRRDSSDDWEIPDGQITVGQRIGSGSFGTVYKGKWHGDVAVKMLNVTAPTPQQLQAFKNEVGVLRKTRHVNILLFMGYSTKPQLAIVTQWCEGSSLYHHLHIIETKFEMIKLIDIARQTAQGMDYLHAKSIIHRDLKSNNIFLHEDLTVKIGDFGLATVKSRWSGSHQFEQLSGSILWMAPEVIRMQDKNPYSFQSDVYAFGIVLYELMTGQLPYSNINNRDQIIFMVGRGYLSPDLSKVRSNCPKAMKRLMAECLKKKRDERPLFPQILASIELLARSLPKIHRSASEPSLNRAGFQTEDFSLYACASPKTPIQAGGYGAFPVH

Sample 1 — effect on: enzyme activity; mode: inhibitor; tested at: 0.5 µM; relative to: control; endpoint: remaining activity
Structure (SMILES): COC[C@H]1OC(=O)c2coc3c2[C@@]1(C)C1=C(C3=O)[C@@H]2CCC(=O)[C@@]2(C)C[C@H]1OC(C)=O
target = BRAF (Homo sapiens, UniProt P15056); result = 96.4%
target = Aurora kinase B (AURKB, Homo sapiens, UniProt Q96GD4); result = 94.2%
target = Cyclin-dependent kinase 6, with cyclin D1 (CDK6, Homo sapiens, UniProt Q00534); result = 90.1%
target = NTRK1 (Homo sapiens, UniProt P04629); result = 97.9%
target = SRPK2 (Homo sapiens, UniProt P78362); result = 85.4%
target = SYK (Homo sapiens, UniProt P43405); result = 107%
target = CAMK2A (Homo sapiens, UniProt Q9UQM7); result = 97.1%
target = MAP3K7 (Homo sapiens, UniProt O43318); result = 97.2%
target = TTK (Homo sapiens, UniProt P33981); result = 98.2%

Sample 2 — effect on: enzyme activity; mode: inhibitor; tested at: 77 µM; relative to: untreated; endpoint: remaining activity
Target: DNA polymerase theta, ATPase domain (POLQ, Homo sapiens, UniProt O75417)
Sequence of UniProt O75417 (whole entry, unmodified, looked up): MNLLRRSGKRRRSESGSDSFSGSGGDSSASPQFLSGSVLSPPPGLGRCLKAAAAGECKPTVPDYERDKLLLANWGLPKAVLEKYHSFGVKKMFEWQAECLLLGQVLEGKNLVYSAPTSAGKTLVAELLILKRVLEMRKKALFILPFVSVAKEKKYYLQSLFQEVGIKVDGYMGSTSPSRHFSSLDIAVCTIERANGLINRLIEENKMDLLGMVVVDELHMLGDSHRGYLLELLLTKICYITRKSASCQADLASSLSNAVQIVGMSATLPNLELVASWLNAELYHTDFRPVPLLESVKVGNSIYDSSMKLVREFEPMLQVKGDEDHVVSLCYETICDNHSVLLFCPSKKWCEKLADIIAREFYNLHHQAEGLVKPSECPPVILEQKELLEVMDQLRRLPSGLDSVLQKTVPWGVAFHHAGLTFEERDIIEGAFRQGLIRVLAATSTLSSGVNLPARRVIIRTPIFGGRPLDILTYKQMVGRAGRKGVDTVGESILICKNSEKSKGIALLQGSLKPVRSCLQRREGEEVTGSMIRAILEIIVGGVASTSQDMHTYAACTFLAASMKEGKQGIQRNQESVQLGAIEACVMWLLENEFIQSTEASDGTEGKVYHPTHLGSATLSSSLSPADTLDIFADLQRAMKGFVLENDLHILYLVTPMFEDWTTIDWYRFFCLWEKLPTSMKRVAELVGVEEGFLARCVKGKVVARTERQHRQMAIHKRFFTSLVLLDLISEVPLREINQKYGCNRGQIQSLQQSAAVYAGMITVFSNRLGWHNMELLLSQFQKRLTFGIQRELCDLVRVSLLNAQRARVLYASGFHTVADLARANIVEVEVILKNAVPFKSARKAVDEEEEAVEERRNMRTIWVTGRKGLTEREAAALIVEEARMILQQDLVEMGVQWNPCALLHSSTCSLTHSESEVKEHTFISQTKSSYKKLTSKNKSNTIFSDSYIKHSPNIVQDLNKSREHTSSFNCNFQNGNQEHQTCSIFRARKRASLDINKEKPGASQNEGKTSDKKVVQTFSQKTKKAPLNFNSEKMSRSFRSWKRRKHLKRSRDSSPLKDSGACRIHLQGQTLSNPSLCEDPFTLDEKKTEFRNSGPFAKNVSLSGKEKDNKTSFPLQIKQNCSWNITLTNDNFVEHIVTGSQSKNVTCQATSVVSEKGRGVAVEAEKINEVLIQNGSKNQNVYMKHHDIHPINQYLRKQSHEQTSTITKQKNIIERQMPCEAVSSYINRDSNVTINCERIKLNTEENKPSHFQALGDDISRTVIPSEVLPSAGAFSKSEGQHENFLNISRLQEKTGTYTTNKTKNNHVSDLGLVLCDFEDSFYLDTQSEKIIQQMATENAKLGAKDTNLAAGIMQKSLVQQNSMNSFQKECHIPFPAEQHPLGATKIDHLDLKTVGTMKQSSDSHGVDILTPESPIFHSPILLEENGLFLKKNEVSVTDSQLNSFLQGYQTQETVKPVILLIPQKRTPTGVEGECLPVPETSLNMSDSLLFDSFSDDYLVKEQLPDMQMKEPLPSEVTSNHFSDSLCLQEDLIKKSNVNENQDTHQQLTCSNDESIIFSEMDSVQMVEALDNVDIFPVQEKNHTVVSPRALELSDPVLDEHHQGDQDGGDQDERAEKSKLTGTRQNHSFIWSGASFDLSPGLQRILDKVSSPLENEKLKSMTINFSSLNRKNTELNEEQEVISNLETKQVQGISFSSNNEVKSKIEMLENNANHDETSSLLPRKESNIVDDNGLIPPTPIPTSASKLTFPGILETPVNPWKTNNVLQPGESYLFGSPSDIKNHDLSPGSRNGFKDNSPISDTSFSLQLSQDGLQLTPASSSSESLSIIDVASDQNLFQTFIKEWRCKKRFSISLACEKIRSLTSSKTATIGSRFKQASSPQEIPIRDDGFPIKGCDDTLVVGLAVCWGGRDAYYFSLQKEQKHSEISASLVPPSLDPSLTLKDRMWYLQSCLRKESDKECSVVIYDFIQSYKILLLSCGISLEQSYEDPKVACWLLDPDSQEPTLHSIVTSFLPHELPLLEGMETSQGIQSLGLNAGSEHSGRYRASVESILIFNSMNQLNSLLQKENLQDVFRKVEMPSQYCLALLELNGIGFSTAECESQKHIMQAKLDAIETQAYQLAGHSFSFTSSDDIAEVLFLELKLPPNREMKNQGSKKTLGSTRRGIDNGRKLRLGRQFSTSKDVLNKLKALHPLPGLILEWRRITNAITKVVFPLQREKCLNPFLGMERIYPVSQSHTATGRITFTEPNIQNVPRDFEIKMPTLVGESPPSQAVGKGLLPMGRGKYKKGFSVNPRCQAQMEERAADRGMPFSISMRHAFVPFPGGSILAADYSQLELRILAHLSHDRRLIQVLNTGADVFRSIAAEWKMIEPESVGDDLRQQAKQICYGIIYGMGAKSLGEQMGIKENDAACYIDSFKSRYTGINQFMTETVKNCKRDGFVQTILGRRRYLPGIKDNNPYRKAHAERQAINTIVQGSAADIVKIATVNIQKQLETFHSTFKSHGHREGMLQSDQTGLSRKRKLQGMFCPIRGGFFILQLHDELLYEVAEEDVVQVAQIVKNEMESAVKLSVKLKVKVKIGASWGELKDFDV
Structure (SMILES) = CC(C)[N+](C)(CCC(C(N)=O)(c1ccccc1)c1ccccc1)C(C)C; result = 100%
Structure (SMILES) = C[C@@H]1O[C@@H](O[C@H]2C[C@@H](O)[C@]3(CO)[C@H]4[C@H](O)C[C@]5(C)[C@@H](C6=CC(=O)OC6)CC[C@]5(O)[C@@H]4CC[C@]3(O)C2)[C@H](O)[C@H](O)[C@H]1O; result = 105%
Structure (SMILES) = c1cc2c(cc1[C@H]1OC[C@H]3[C@@H]1CO[C@@H]3c1ccc3c(c1)OCO3)OCO2; result = 104%
Structure (SMILES) = CCCN(CCC)C1Cc2cc(OC)c(OC)cc2C1; result = 102%
Structure (SMILES) = CC[N+]1(C)CCCC(OC(=O)C(O)(c2ccccc2)c2ccccc2)C1 (stereo not drawn); result = 98.7%
Structure (SMILES) = C=CC[C@]1(O)CC[C@H]2[C@@H]3CCC4=CC(=O)CCC4=C3C=C[C@@]21C; result = 95%
Structure (SMILES) = CC(=O)Nc1ccc(Cc2ccc(NC(C)=O)cc2)cc1; result = 101%
Structure (SMILES) = C/C=C1/C[N@+]2(C)CC[C@]34C(=C(C=O)[C@H]1C[C@@H]32)Nc1ccccc14; result = 103%

Sample 3 — cell line: mouse MPNST tumor cells; technique: high-content nuclear imaging; measured: cell number; tested at: 10 µM; time: 12 h; setting: mean of 2 replicates; relative to: plate mean; direction: higher = more cells; endpoint: nuclei count
SMILES = Nc1ccc(Oc2ccc(C(c3ccc(Oc4ccc(N)cc4)cc3)(C(F)(F)F)C(F)(F)F)cc2)cc1; result = -1.89 z-score
SMILES = CN1[C@@H]2C[C@@H](OC(=O)[C@H](CO)c3ccccc3)C[C@H]1[C@@H]1O[C@@H]12; result = 1.23 z-score
SMILES = C[C@@H]1CC[C@H]2[C@@H](C)C(=O)O[C@@H]3O[C@@]4(C)CC[C@@H]1[C@]32OO4; result = 0.847 z-score and 3.02 z-score
SMILES = OC(CNc1ccccc1)Cn1c2ccc(Br)cc2c2cc(Br)ccc21 (stereo not drawn); result = -0.617 z-score
SMILES = CC(C)C[C@H]1C(=O)N2CCC[C@H]2[C@]2(O)O[C@](NC(=O)[C@@H]3C=C4c5cccc6[nH]c(Br)c(c56)C[C@H]4N(C)C3)(C(C)C)C(=O)N12; result = 5.62 z-score and 3.4 z-score
SMILES = C#C[C@]1(O)CC[C@H]2[C@@H]3CCC4=CC(=O)CC[C@]4(C)[C@H]3CC[C@@]21C; result = 3.54 z-score
SMILES = O=C(O)C1=CCCN(CCOC(c2ccc(C(F)(F)F)cc2)c2ccc(C(F)(F)F)cc2)C1; result = 1.44 z-score
SMILES = CCCOc1ccc2[nH]cc(C3=CCNCC3)c2n1; result = 3.67 z-score
SMILES = CN1[C@@H]2CC[C@H]1CC(OC(=O)N1Cc3ccccc3NC1=O)C2 (stereo partly drawn); result = -0.289 z-score

Sample 4 — effect on: RNA clamping; technique: fluorescence polarization; tested at: concentration not given; with: FAM-labelled poly r(AG)8 RNA; endpoint: fluorescence polarization change
Target: Eukaryotic initiation factor 4A-III (Homo sapiens, UniProt P38919)
Sequence of UniProt P38919 (whole entry, looked up): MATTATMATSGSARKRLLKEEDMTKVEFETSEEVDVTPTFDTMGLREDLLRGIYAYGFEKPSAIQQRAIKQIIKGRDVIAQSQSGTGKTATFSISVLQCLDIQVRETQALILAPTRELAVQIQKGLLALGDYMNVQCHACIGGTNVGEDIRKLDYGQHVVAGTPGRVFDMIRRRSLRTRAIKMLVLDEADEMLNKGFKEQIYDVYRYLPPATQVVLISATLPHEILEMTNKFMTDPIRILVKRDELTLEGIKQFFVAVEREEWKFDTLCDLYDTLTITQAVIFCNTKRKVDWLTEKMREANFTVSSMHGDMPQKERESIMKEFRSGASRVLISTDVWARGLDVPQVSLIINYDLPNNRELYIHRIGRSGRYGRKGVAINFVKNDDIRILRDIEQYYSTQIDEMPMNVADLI
SMILES = COc1cc(OC)c2c(c1)O[C@@]1(c3ccc(Br)cc3)[C@H](c3ccccc3)[C@@H](C(=O)N(C)C)[C@@H](O)[C@@]21O; result = 36.1 mP
SMILES = COC(=O)[C@@H]1[C@@H](c2ccccc2)[C@]2(c3ccc(OC)cc3)Oc3cc(OC)cc(OC)c3[C@@]23NC(C(C)(C)C)=N[C@@]13O; result = 24.9 mP
SMILES = COCCN[C@]12c3c(OC)cc(OC)cc3O[C@@]1(c1ccc(OC)cc1)[C@H](c1ccccc1)[C@@H](C(=O)N(C)C)[C@H]2O; result = 7.9 mP
SMILES = CONC(=O)[C@H]1[C@@H](O)[C@@]2(O)c3c(OC)cc(OC)cc3O[C@@]2(c2ccc(Br)cc2)[C@@H]1c1ccccc1; result = 50.9 mP and 2.4 mP and 58.2 mP
SMILES = COCCN[C@]12c3c(OC)cc(OC)cc3O[C@@]1(c1ccc(OC)cc1)[C@H](c1ccccc1)C[C@@H]2O; result = 5.9 mP
SMILES = COc1ccc(-c2nc3c(c(=O)[nH]2)[C@@H](c2ccccc2)[C@]2(c4ccc(OC)cc4)Oc4cc(OC)cc(OC)c4[C@]32O)cc1; result = -3.2 mP and 29.9 mP
SMILES = COc1ccc([C@@]23Oc4cc(OC)cc(OC)c4[C@]2(OC)c2nc(-c4ccccc4)nc(OC)c2[C@H]3c2ccccc2)cc1; result = 3.4 mP

Excerpt of the above (sample 1):
target = BRAF (Homo sapiens, UniProt P15056); result = 96.4%
target = Aurora kinase B (AURKB, Homo sapiens, UniProt Q96GD4); result = 94.2%
